Experimental data collected from several papers.
Every numbered part comes from another study and shows a few of its results, in no order.

Block 1
Target: Interferon regulatory factor 7, full length, phosphomimetic (IRF7, Homo sapiens, UniProt Q92985, residues 1-503, S471D/S472D/S475D/S476D/S477D/S483D/S484D/S487D)
Chain of UniProt Q92985 (whole entry, unmodified, looked up): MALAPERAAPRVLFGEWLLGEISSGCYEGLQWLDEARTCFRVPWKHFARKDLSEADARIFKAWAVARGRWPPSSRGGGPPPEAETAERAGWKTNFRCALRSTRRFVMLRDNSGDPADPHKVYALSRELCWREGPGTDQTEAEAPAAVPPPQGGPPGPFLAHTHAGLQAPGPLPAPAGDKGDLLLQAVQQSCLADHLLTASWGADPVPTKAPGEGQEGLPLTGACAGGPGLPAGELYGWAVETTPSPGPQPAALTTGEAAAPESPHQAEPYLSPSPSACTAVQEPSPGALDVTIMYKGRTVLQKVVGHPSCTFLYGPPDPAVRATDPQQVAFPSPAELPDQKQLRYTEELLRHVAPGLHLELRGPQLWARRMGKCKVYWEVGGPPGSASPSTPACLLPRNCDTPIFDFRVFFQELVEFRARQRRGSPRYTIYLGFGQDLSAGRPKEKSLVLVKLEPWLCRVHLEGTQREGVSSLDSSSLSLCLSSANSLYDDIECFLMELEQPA
Technique: protein-binding microarray
Molecule type: double-stranded DNA, one strand shown
Medium: in vitro
Tested at: 2200 nM top
Notes: 60-bp whole probe
Added: salmon DNA 0.4 mg/ml
Baseline: random background probes
Direction: higher = stronger binding
Quantity: fitted relative affinity
Shared flanks, not repeated: GCCTAGCAC … GTCTTGATTCGCTTGACGCTGCTG
GACGATTTCGGTACTGGAGACGTGCTA: 2.59 z-score
TAAGATTTCGGGTATCGATTAGTGCTA: 2.73 z-score
AACGGACTGCTTCTCCTGACGTGCTAG: 0.581 z-score
TTAGGTTTCGACCTTCGGTTAGTGCTA: 4.24 z-score
GACGTTCTCGGTATCGGGACGTGCTAG: 0.703 z-score
GACGGTATCAACTTTCGGGACGTGCTA: 3.61 z-score
TGTCATATACACATCTTCTGGTGCTAG: 1.11 z-score
TCATTTATGCACTCTTTAACTGTGCTA: 1.11 z-score
TATCAGTTTAATATCTAAGAGTGCTAG: 0.481 z-score
GACGAACTGAGATTGGAGACGTGCTAG: -0.293 z-score
GACGATTACGGGTTTCGAGACGTGCTA: 1.72 z-score
AACAGAGGAATGGATACAGAGTGCTAG: -0.607 z-score
TATTGTCTCCCCCATCTTGTTGTGCTA: 0.809 z-score
TTAGGTTTAGGGTATCGGTTAGTGCTA: 0.367 z-score
TCACTTTTGCTTGTTCTTACTGTGCTA: 3.38 z-score
GACGGACTGGGCACTGGGGACGTGCTA: -1.21 z-score
TTAGGTTACCTTATCCTTTAGTGCTAG: 0.759 z-score
GAAGAACTGGGGTTTCGAGACGTGCTA: 0.894 z-score
CTCCCTCAGGGTTTCAGATGGTGCTAG: -0.134 z-score

Block 2
Target: Histone acetyltransferase KAT6A, winged helix 2, GST fusion (KAT6A, Homo sapiens, UniProt Q92794, residues 85-181)
Technique: protein binding microarray
Molecule type: double-stranded DNA, one strand shown
Medium: in vitro
Tested at: not given
Notes: 8-mer, flanks averaged, mean of 2 arrays, mostly near background
Baseline: not given
Direction: higher = stronger binding
Quantity: E-score
Construct (chain): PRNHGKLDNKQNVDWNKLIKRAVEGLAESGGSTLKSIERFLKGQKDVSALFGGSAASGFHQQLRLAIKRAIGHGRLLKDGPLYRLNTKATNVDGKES
GGTGTAAA: -0.168
CCTATACG: -0.143
ACCAGTTA: -0.184
GATGAAGA: 0.0368
AGGGATGC: -0.197
CCCATTCC: -0.0391
ACGGCGTC: 0.0856
CTACACAG: -0.0271
GCGTAGCA: 0.0711
ATTCTGTG: 0.0474
AGGGCCTA: -0.0679
AGGAACAG: -0.0546
CGAGACAA: 0.0743
ACGGAGCG: 0.102
AGCACATG: 0.00219
CTTGGGCA: 0.0672
GGCCAGAA: 0.143
GGCGAGTA: -0.0812
AGGGCTAT: -0.337
CGCCTTCA: -0.067
AGCGATTC: 0.00864
GGTTGCTA: 0.0503

Block 3
Target: Prothrombin, mature alpha-thrombin (F2, Homo sapiens, UniProt P00734)
Technique: aptamer microarray, sandwich
Molecule type: DNA with 2'F-ANA
Medium: in vitro
Tested at: 200 nM
Notes: whole 15-mer aptamer, many near background
Added: Cy3 exosite-II aptamer, 400 nM
Direction: higher = stronger binding
Quantity: mean fluorescence intensity
Sequence: GGTTGGTGTGGTTGG
2'F-ANA at 3 4 6 7 8 9 10 11 12 13: 226 a.u.
2'F-ANA at 1 2 5 9 10 12 14 15: 50.8 a.u.
2'F-ANA at 1 2 3 6 7 9 12 13 14: 90.9 a.u.
2'F-ANA at 1 4 5 6 8 9 10 11 12 13 15: 61.9 a.u.
2'F-ANA at 1 2 3 4 6 7 8 9 11 12 13: 207 a.u.
2'F-ANA at 4 5 7 9 10 11 12 13 14: 47.2 a.u.
2'F-ANA at 1 2 8 13 14 15: 56.8 a.u.
2'F-ANA at 1 2 5 6 7 8 9 12 13 14: 49 a.u.
2'F-ANA at 3 4 6 9 10 11 12 13: 231 a.u.
2'F-ANA at 1 4 5 6 10 11 15: 51.9 a.u.
2'F-ANA at 1 8 9 11 13: 163 a.u.
2'F-ANA at 2 4 6 7 9 11 12 13 14 15: 76.7 a.u.
2'F-ANA at 1 3 4 5 7 9 11 13 15: 51.9 a.u.
2'F-ANA at 2 4 6 14: 91.3 a.u.
2'F-ANA at 1 3 4 5 7 11 13: 85.2 a.u.
2'F-ANA at 2 4 5 6 7 10 13 14 15: 45.3 a.u.
2'F-ANA at 9 10 11 13 14 15: 105 a.u.
2'F-ANA at 1 2 3 4 9 14: 78.5 a.u.
2'F-ANA at 2 3 4 6 7 10 14: 174 a.u.
2'F-ANA at 1 2 4 7 15: 166 a.u.
2'F-ANA at 2 4 6 8 10 11 12 13 14 15: 57.9 a.u.
2'F-ANA at 2 3 6 7 9 10 13 15: 275 a.u.
2'F-ANA at 1 2 6 7 8 9 10 11 12 13 15: 64.8 a.u.
2'F-ANA at 3 4 6 8 10 11 12: 327 a.u.
2'F-ANA at 1 2 3 5 8 10 11 12 13 15: 55 a.u.

Block 4
Target: Sal-like protein 4, full length isoform A (SALL4, Homo sapiens, UniProt Q9UJQ4, residues 1-1053)
Chain of UniProt Q9UJQ4 (whole entry, looked up): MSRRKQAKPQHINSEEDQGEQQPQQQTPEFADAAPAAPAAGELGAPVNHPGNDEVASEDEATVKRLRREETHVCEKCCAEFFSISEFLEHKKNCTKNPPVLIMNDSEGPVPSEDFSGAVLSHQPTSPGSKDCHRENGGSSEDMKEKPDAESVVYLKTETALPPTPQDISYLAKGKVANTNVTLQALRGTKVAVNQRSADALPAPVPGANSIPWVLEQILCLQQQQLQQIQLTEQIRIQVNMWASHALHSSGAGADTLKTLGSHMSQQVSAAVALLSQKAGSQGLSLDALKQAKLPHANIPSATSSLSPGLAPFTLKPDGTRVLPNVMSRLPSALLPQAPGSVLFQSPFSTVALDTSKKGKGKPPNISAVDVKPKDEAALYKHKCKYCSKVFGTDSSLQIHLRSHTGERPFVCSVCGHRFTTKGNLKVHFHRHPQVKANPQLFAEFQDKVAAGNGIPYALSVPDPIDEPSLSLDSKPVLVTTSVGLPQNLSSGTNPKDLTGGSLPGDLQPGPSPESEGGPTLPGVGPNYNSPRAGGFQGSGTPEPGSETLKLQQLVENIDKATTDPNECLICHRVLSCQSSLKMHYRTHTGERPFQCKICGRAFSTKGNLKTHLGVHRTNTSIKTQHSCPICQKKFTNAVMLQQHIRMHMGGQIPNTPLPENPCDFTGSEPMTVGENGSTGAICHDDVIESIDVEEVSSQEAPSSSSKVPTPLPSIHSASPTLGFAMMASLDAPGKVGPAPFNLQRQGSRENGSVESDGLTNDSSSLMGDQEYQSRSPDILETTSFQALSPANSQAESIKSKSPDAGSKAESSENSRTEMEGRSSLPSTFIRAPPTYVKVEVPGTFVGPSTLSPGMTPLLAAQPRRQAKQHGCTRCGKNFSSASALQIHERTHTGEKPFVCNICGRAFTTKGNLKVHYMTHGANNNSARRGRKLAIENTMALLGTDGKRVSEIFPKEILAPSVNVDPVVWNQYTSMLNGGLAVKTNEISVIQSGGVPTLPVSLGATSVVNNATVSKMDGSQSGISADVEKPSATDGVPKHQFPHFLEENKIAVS
Technique: universal PBM
Molecule type: double-stranded DNA, one strand shown
Medium: in vitro
Tested at: 600 nM
Notes: 8-mer, flanks averaged, mean of replicates
Direction: higher = stronger binding
Quantity: E-score
AATACGAA: 0.319
GAGAGCGA: -0.219
AACACTCT: 0.134
CGACTTGC: -0.171
CACTTCAA: 0.0957
CTCATTCA: 0.11
ACTCTCCT: 0.0312
CAGCCTGC: -0.232
AGATACGC: -0.0567
CGGGGTTC: -0.266
ACCAGACG: -0.137
GCGCGATA: -0.00766
GAATATGC: 0.223
GGCATCAA: -0.144
CTTGAGTA: 0.0721
GGGTTTGA: -0.00807
AAAAGCGG: -0.213
CTAGAGGC: -0.145
ACGTTCGA: 0.0306
CATGATGC: 0.0817
CTAGGGTC: -0.287
AACAAGGA: 0.195
ATTACTTA: 0.303
CTGCGGGC: -0.35

Excerpt of the above (block 1):
GACGGTATCAACTTTCGGGACGTGCTA: 3.61 z-score
TTAGGTTTCGACCTTCGGTTAGTGCTA: 4.24 z-score
TTAGGTTTAGGGTATCGGTTAGTGCTA: 0.367 z-score
TGTCATATACACATCTTCTGGTGCTAG: 1.11 z-score
CTCCCTCAGGGTTTCAGATGGTGCTAG: -0.134 z-score
GACGAACTGAGATTGGAGACGTGCTAG: -0.293 z-score
